Experimental data of several laboratories.
Numbered parts are unrelated; each lists some results of a single study.

Set 1
Target: Histone acetyltransferase KAT6A, both winged helices, GST fusion (KAT6A, Homo sapiens, UniProt Q92794, residues 1-181)
Technique: protein binding microarray
Molecule type: double-stranded DNA, one strand shown
Medium: in vitro
Tested at: not given
Notes: 8-mer, flanks averaged, mean of 2 arrays, mostly near background
Reference: not given
Reading: higher = stronger binding
Target sequence (chain): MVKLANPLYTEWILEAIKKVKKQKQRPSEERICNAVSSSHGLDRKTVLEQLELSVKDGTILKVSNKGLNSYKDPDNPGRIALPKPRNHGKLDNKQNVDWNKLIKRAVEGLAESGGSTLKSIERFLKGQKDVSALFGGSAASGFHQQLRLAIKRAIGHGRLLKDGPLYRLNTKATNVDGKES
With `GACACCTC` the E-score was 0.00238.
`CAACAACG` gave an E-score of -0.0349.
With `GAGGACGC` the E-score was 0.145.
`TCTGCGCA` gave an E-score of 0.175.
The E-score of `CTACGTTC` is reported as -0.0371.
`AGCTCCCA` has an E-score of -0.197.
For `CAATATAC`, the E-score was -0.0659.
For `ACAAAAGC`, the E-score was -0.0363.
`ACATACTG` gave an E-score of -0.0932.
With `ATGGACCG` the E-score was 0.0689.
For `CCCGCGGA`, the E-score was 0.263.
`CACCAGAG` has an E-score of -0.231.
The E-score of `CGATGGTC` is reported as -0.0478.
With `CAGAGTTC` the E-score was 0.00178.
For `GGGCCCCA`, the E-score was -0.0449.
For `ACTCCTCC`, the E-score was -0.18.
The E-score of `CCGCAAGC` is reported as 0.137.
With `CTCCTTAA` the E-score was -0.0871.
`AGCAAAAG` gave an E-score of -0.108.

Set 2
Target: RING finger protein unkempt homolog, zinc fingers 1-6, SBP tag (UNK, Homo sapiens, UniProt Q9C0B0, residues 30-357)
UniProt Q9C0B0, sequence (30-357, looked up): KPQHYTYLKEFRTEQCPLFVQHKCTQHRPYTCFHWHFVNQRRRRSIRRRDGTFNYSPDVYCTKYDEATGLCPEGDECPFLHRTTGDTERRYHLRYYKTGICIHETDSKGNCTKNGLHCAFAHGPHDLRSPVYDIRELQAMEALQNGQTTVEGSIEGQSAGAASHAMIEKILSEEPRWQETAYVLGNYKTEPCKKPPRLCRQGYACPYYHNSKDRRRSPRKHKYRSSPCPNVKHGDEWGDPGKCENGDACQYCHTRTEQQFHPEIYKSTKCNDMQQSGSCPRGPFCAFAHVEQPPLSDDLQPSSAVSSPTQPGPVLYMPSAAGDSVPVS
Technique: RNA Bind-n-Seq
Molecule type: RNA
Medium: in vitro
Tested at: 100 nM
Notes: RNA with constant flanks, vertebrate orthologous sites, ends assumed
Reference: input RNA pool
Reading: higher = stronger binding
`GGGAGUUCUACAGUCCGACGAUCGCUCUAGUUCUUAACAACCAACACUCCUAAAAGAUUUAGAAAAAAGUUUACAACAUAAUCUAGUUUACAGAAAAAUCUUGUGCUAGAAUACUUUUUAAAAGGUAUUUUGAAUAUCAUUAACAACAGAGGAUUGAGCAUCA` gave a bound/input enrichment of 0.901 ratio.
For `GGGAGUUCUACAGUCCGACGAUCUUCAUUACUUGAGCCGAGUGGAGGUGACCGAGUUUGAAGACAUCAAGUCGGGCUACAGAAUAGAUUUUUAUUGUAAAGAUGCCCGCGUACGUACAACAUGGAGGUGCUCUGUCUUGUAUUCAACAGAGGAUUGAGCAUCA`, the bound/input enrichment was 0.367 ratio.
`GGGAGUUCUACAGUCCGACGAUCGUAUUAGCGUCAGCCAGCAUAUUAACCUCUCGUCUGUGCACAGCUUCAAAUGUUUUCAUCUAGUUAGAUUUUUAUUUAAAAGAUUUAAAAAACUGCUUUUCCCAAGACGUUUUUUAAUAACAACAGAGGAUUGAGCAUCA` has a bound/input enrichment of 1.88 ratio.
The bound/input enrichment of `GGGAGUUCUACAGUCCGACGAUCUAGUGCUUAAGCCAACAGCAGUUCUAAAAUGCUAUUUAUUUGUGUUUGUAAGUUUGUACAUAAUACAAACCUCAUAUUGUUGCUAAGCUUUUUUUUUAAUUGGGGUGUGGGUCAAUUUGACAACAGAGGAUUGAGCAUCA` is reported as 2.35 ratio.
`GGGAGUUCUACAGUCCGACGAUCGUCUGGGUGGGGGGGCAGUGAGCAUUAACUUAUAAAGAAAUGAAAUGCUGAAAGUCCUAUUAGUACUAAGUUUAGUGGGAGAAUUUAAACUCUUUUUACAUAAUUCUAAAACGAAAACCUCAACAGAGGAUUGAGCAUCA` gave a bound/input enrichment of 0.88 ratio.
`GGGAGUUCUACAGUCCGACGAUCUGGGGUUGGGGGGGGUGGUGGGAAGAAGAUGUAUGGAUGUUACUGGCAUUUUUAACUGUUCAGAACUUUUUUUUCUCCCUCUGUUUUGCUUUUUCCCUUUAAUUGGAUGCACUGACCUGGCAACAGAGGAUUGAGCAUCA` has a bound/input enrichment of 0.828 ratio.
With `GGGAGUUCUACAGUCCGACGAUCCUCUAGUGCUUAAGAACCAACCUAAAACCAUUAGAAAAAAAAAAAGUUUACAACUUAAUCUAGUUUACAAAGAAGUCUUGUGCUAGAAUACUUUUUUAAAGUAUUUUUUGAAUACCAUUACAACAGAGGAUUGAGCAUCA` the bound/input enrichment was 1.09 ratio.
The bound/input enrichment of `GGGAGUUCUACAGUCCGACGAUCGCAUUUGCCGCUAUCACCAAAAGCAAACUUCCACUUUUCAAAUUUCAUUCAGAGCCGUUUUAGUGUUUCCUAUUCCCUACCCUUCCCACGACUUUCUCUGAUGAAAUAUCCUGUUCUCCUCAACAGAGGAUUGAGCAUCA` is reported as 1.44 ratio.

Set 3
Target: Sal-like protein 4, full length isoform A (SALL4, Homo sapiens, UniProt Q9UJQ4, residues 1-1053)
UniProt Q9UJQ4, sequence (whole entry, looked up): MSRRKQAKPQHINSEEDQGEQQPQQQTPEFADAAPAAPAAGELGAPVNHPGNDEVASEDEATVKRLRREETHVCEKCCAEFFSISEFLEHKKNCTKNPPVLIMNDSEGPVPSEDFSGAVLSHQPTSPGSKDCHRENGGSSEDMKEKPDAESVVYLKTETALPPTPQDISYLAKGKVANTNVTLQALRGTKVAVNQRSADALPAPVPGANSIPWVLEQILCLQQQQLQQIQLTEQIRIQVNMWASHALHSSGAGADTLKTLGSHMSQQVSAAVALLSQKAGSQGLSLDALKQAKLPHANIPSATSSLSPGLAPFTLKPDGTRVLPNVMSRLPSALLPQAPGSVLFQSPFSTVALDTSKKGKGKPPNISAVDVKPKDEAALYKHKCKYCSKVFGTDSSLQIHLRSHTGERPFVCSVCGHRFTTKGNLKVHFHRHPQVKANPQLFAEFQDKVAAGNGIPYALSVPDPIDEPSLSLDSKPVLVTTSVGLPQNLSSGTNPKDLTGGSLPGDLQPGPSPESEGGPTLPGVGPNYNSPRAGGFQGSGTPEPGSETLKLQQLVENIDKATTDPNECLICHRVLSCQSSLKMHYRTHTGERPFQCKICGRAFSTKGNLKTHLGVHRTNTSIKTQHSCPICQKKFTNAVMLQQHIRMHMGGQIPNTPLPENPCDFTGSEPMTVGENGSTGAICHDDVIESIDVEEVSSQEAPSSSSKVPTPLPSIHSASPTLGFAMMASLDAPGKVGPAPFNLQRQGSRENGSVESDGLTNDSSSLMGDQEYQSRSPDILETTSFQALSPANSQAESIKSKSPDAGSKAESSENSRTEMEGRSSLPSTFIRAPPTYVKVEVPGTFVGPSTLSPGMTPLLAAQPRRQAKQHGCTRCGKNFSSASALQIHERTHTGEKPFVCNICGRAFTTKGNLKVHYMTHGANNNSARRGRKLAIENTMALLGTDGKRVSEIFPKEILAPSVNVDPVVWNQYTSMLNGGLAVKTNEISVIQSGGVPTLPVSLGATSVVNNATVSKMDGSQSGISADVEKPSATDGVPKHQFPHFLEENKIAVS
Technique: universal PBM
Molecule type: double-stranded DNA, one strand shown
Medium: in vitro
Tested at: 600 nM
Notes: 8-mer, flanks averaged, mean of replicates
Reading: higher = stronger binding
The E-score of `AGGATCTC` is reported as -0.112.
`ACTGCGTG` has an E-score of -0.133.
`GCCCCGTA` has an E-score of -0.266.
`TATCTAGA` gave an E-score of 0.151.
For `GGCAAAGA`, the E-score was 0.0346.
With `ACAGCTAG` the E-score was -0.1.
With `CATATGCA` the E-score was 0.214.
`CTAGATGC` has an E-score of -0.0201.
The E-score of `ACCATGTC` is reported as 0.0619.
`CCGTGTAC` has an E-score of -0.0732.
With `TGTCGGAA` the E-score was -0.0415.
With `AAACGAGT` the E-score was 0.136.
With `ACCGAACG` the E-score was -0.134.
The E-score of `AAACGCAG` is reported as 0.0153.
`GCGTACGC` has an E-score of -0.112.
The E-score of `CAAAGTTC` is reported as -0.111.
`TTTCCAAA` has an E-score of 0.271.
`GCACTCAA` gave an E-score of -0.211.
`AGCATGCG` has an E-score of -0.0277.
With `CGGCGGCA` the E-score was -0.372.
The E-score of `GTAAAGTA` is reported as 0.212.
With `CTGGCTCC` the E-score was -0.296.
`CGAGGGAA` gave an E-score of -0.121.
With `TATCTTGA` the E-score was 0.202.
For `CGGTTGGA`, the E-score was -0.163.

Set 4
Target: RNA binding protein fox-1 homolog 2, RRM domain, GST-SBP tag (RBFOX2, Homo sapiens, UniProt O43251-10, residues 100-194)
Technique: RNA Bind-n-Seq
Molecule type: RNA
Medium: in vitro
Tested at: 365 nM
Notes: natural RNA segment, single round, ends assumed
Reference: no-protein control
Reading: higher = stronger binding
Residues (chain): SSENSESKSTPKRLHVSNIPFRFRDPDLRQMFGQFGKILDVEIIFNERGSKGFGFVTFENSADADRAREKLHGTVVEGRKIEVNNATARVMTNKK
`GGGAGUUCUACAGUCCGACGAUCCUUCCUGCAUGAUAGGGAGAGACAAGAAAGAAGAAAUGCUAUUCCACAAGGAAUCUCUUAGAGUUUUGCAGCAAACAGGUGGUGCACAGGUCUGGAAGGUCUGGUCUCCCUGGAAUUCUCGGGUGCCAA` — result for “RBNS enrichment (R)”: 9.69.
`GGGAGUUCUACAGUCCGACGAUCAAUUUCAACUUUUCCUUUCAUACGUCUUUAUUACCCAAGUCUUCUCCCGUCCAUUCCAGUCAAAUCUGGGCUCACUCACCCCAGCGAGCUCUCAAAUCCCUCUCCAACUGUGGAAUUCUCGGGUGCCAA`: “RBNS enrichment (R)” 1.2.
`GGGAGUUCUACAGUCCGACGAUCGCUCUCUCUGGGUGAGUGUGGGGUCUGGGUGUCCUUUGCAUUCCCCUCCUCACCCCAGGUGCCUUAAGACAGCCCAGUUCUAACCUGAUAUUCAUGACCAAACUAGCCCUUGGAAUUCUCGGGUGCCAA`: “RBNS enrichment (R)” 0.572.
Under “RBNS enrichment (R)”, `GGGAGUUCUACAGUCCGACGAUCUAGUUAUGUAAAAGGCUACCCUUGACAAGAAAAGACAUACUGUCAUGUAUUUAUAUUCUAGCAUAGACUAAACUGAAUAAAAAUGCUGAUAACAGGACCUUUAGUAAGCAUGGAAUUCUCGGGUGCCAA` is recorded as 4.5.
Under “RBNS enrichment (R)”, `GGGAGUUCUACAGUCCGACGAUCAGCAUAAUCAAUAACUCGCAUAUGAAGUAAAAAGGAAUACUGUGAAAGGGGAGUACUCUUGUACAGCCAGUUCUUUUAUGCAAAAAUCUAUGCAUUUUUACAAUCUUAUAUGGAAUUCUCGGGUGCCAA` is recorded as 0.609.
`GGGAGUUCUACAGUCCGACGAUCGAUCCUGGUUCUAUUCUGGGUAUUUCAUCCUGCCUUCCAGAGCACCUUCUGAAGUUCACAUCGUUGGCAUUUCCUUUUUAUGUUAUGCAUACUUUGGCUGAACAAACAUUUGGAAUUCUCGGGUGCCAA`: “RBNS enrichment (R)” 0.21.
Under “RBNS enrichment (R)”, `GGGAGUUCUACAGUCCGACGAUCCAUGUUGCUUUCAGAGAGGUCAACAUUAAAAUACUGAGACAGGACAGAAUGUGUUCUUUGUCCUUUUCCAGCCCUGCUCUUCUCUGGGAAGAUACAGGAGUCUGCCACCUUGGAAUUCUCGGGUGCCAA` is recorded as 0.363.
`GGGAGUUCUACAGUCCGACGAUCAAUCCAAAAGAAAUGUCAUUAACCAAUACUCCAAGUCCUUGAGUUUUGUUAUAUCUGAACUAGUUGAACUGUGACUGACAGGUAAUCCUAAUAUAUCCAAAUCCAACUGAUGGAAUUCUCGGGUGCCAA`: “RBNS enrichment (R)” 0.363.

For quick reference, copied from above (set 3):
For `GGCAAAGA`, the E-score was 0.0346.
`GCCCCGTA` has an E-score of -0.266.
With `CTGGCTCC` the E-score was -0.296.
